Published values from different studies.
A part holds a random share of what one study measured.

Study 1
Target: PABPC1L2, full length, GST fusion (mouse, UniProt A0ABA7IW68)
Method: RNAcompete
Form: RNA
Sample: in vitro
Tested at: 20 nM
Setting: 7-mer, probes averaged, single round
Relative to: mean of 7-mers
Direction: higher = stronger binding
Quantity: 7-mer Z-score
Construct (chain): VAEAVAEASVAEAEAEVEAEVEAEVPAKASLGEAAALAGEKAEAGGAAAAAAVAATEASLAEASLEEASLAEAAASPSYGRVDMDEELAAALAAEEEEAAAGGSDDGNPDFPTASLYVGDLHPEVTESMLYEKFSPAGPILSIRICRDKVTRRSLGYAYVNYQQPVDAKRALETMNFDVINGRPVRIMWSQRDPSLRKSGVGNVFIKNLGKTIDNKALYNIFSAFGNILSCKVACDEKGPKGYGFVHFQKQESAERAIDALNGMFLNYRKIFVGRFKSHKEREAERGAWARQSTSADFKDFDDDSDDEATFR
CAGAAGA: 0.22
UACAAUC: -0.0192
CUACUUG: -0.248
CCGUCAG: -0.313
AACCGGA: 0.358
AUGGACU: -0.0192
ACCGUUU: -0.3
CAUACCG: -0.345
CGGGAAG: -0.0428
GAAGUGA: -0.0192
GCACAGC: -0.121
GUAAAUG: 0.133
CGGGCUU: 0.0207
GGCGGUG: 0.109
CAGAGUC: -0.162
CAACGCC: -0.115
CAUGUCC: -0.13
UUUCAGC: -0.315
CUACUCA: -0.195
AUAGCAC: -0.124
UUUUACG: 0.0334
CUUCAUC: -0.315
GUUUACG: -0.367
GCGCUGC: -0.249
AGCACAC: 0.0279

Study 2
Target: Hepatocyte nuclear factor 3-alpha (Foxa1, Mus musculus, UniProt P35582, residues 1-468, full length assumed)
Method: EMSA with sequencing
Form: double-stranded DNA, one strand shown
Sample: in vitro
Tested at: 10 and 20 nM
Setting: whole designed probe, mean of two concentrations, ends assumed
Relative to: negative control set to 0
Direction: higher = stronger binding
Quantity: normalised bound fraction
Shared flanks, not repeated: GTGAGCGGTGCCCATTGATGGGGAAC … TTTCACTGGGATCGTGGGGAC
Target sequence (chain): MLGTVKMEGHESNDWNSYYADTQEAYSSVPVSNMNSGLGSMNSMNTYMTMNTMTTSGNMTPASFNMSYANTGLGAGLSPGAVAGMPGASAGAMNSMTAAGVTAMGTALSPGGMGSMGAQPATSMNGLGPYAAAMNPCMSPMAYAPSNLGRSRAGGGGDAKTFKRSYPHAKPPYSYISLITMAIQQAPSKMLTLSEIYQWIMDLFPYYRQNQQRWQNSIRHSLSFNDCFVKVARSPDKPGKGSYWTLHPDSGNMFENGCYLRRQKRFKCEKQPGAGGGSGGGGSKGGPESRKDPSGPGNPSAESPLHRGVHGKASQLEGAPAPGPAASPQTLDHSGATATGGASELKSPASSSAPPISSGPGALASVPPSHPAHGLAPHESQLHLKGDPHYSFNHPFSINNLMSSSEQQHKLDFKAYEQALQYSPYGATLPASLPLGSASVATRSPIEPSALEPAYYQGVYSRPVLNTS
CACACTCACCAAGTGCTTTTTCATCATGGCATCAAGGATCATGGAAACGTTACACCAGCCACTCTTTTCTGGAGCAAAGATGACCCATGTCTGGGCAATTTAGAAAGGTTTCGTATGAGTATGTCTGTTCAAATAAATCCTAACTTTCTCACTGGGAAGGAATGACTAGTTCCCACGACTCACAGGACACCAC: 0.125 ratio
AGGTGAATTGGCTGCTTCCATCCTGGCTTGGAACTTCAGACATAGAAGCCTTGGGACTTTCTCAGGACTTTCTCCAGATCTGTCACATGCTCAGCAAACAAGCATCTCTGTGGATCCTGACTCATGCGCCAGGGATGTTGGTGAAACTGTGTGTTGGTCTAGGTACCTAGCCCATGCTAGGTGCTCATCGAAT: 0.104 ratio
CAGCTTGGGGCAGACAGTTGTTAGGAGATAAAACTCTTAGCTGCTGGAGTTCTGGGCTTTATTTCTTCTTCAACAAAGCTCTGACTCAGTTAGGTAAACACAGGCACTAGCAAGCCTGATCATTTCCAGAGAGTTCCCCAGGGACAGACACAAAGGAATACAGAAGATAATAGATTAATTAAACATGCTGCCC: 0.336 ratio
GTGTGTGCGCGCGCGTGTGTGTGTGTTTTCTTAAGCCGGGCTATTCAAACCCTGCTGCAATTCTCCCAATGATTCATGGTAAAGGGGCATAATGCAAATAAACGGATTGCAAACGGCGCGGTTCGCGCACTTTGCAGCCGGCCCGGTGGAGCAGCCAGTGCCGGATTTCTCCCTTTTTTTGCAGATCTGCAGA: 0.411 ratio
GCATGAAGCGTTGGGTCCAACTGCATGAAGAGCACTGAGTCTCTCAGAGATGAGAGCATAAATGACTCAATCTTGATAGGTCTTGGTAAGCAAAGTAAACAAGAGCACATGGAATCACCAATAATTCTGCCTTTCAGAAGGCAGGATCCCCGCTCCAGATATCAGAGCCAATGGGTCTGGAAAGGCTGCATTT: 0.47 ratio
ATCTTCCCCCTCTTCCTTGCCCCACCAGCTCACCTTCCCGGGTTATTTGCAGATAGGAAAATAAATAAAGCCGGCATTCGTTAACCCTCTTCTGGCGCAAACTGCTGTTTGCTCTGCATGAATCATGGTCCTTACGCGAGGCGTGGCTCCGGGAGAGCAAAGCACCGTGTCAGGCGCATGATCCGGGGTGGCC: 0.348 ratio
TTCATCAGTCTATGCAAGTAAATGTTAACATTCCATGTCCTGTGACAGCTTGGGTGAGAGCTGTAATTTATTGGGTTGGAGGGGGGTTGTGGTAAATTGCATTGTGTAAGCTAAGCCTCATTCTTAACACAGAAAAAAGAATGCTACACAACACCAAAAAGGCTAAAATTTGTTTTGCATTATAAATAACAGA: 0.0875 ratio
ATCTTCCCCCTCTTCCTTGCCCCACCAGCTCACCTTCCCGGGTTATTTGCAGATAGGAAAATAAATAAAGCCGGCATTCGTTAACCCTCTTCACGCGCATACTGCTGTTTGCTCTGGATCTAACATGGTCCTTTGGCGAGGCGTGGCTCCGGGAGAGCAAAGCACCGTGTCAGGGCCATGATCCGGGGTGGCC: 0.352 ratio

Study 3
Target: RNA binding protein fox-1 homolog 2, RRM domain, GST-SBP tag (RBFOX2, Homo sapiens, UniProt O43251-10, residues 100-194)
Method: RNA Bind-n-Seq
Form: RNA
Sample: in vitro
Tested at: 365 nM
Setting: natural RNA segment, single round, ends assumed
Relative to: no-protein control
Direction: higher = stronger binding
Quantity: RBNS enrichment (R)
Shared flanks, not repeated: GGGAGUUCUACAGUCCGACGAUC … UGGAAUUCUCGGGUGCCAA
Target sequence (chain): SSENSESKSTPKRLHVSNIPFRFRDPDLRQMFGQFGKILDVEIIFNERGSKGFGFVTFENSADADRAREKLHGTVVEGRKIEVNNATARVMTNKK
UAAAUGCUCCCUGCCUGGUGUGGGGAUGGGGUCCCCCUCUUUGUGAGGGCUGGAGCAUGGCACGGCAUGGAUUAACACGGCAGAGGAACAAAGGUGUGCUCUGAGCUUCU: 2.66
ACUUUGCACUUUGAAUCCAGAGGAAGAUGAAUUUUUAAAAUCUCCAUCAAACGUGCCUUAAAGCUAAAGCAUUUUGACAGGAGUAUUUAAACUUAGUCCAGGAUAUUUUC: 0.383
CUGGAACAGUACAUGGAGGCCUGACCUUGUGGGGGCACAGGGUGGAACCUUAGCUGAAUAUAGUGUGUGUCUCAAGAGGAAGUCAGGGUACUAGCUCAGUGCUCAAUCUC: 0.56
GGUUUUCUAUUAAGGUCUCUGCCCCAGGCAUGGUGCUCUAUAUCUUGGCCAAAUAAAUUACUUUCCUUGAAUAUCCAGGAAUCUUUUAGUCUAAAGCAAUGAGGAGUUAU: 0.394
CUGUAAAAAGGGAGGUGAGAAUACCUACCUCACGGAACUGUUGGGAGGCUCAGAUGAGAUGCUAUAUGUGAAAACAUUCUGUAAGCUUCGUACAAAUGUGAAGUAUUAAU: 0.547
AUAUAUUAUUUUGUAGUAUCUCAGACUUUGCAUAAAUACUAUUAUUUUUGUAUGGAAUUUUUUACAGAAGAGCUAUUUCUGUAUAUGUAAUUAUUUGUGUUUUUUGAAAU: 1.37
GCGCUACGCCCAGAUCCAGCUGGACAAGCUCAAGAAAACCAAUGUCUUCAAUGCCACCUUCCACAUCUGGCACAGCGGACAGUUUGGCACAAUCAAUAAUUUCAGACUGG: 0.354
UGAGAAAACAGGGGCGUUUCCUAAUUUGGUCUUUAUCCUGCGACAACACUUUCAGCAGACUAGCCUCUCCUUAUCUCACAGAUCACAAGCACCCCUAGAUAGUGUGAUUC: 0.326
UCAUUACUGUUUGAUUGAAAAUAAUUUCAAGAUUCAAAAUCUCAUUGACUUCCCAAAUUUGUGUUUUUAAGAAGGCUUUGCUGCAAGCUACCAUUCCCAAUGGGGCAGUC: 0.752
AAGACACAUAUUUGUGUGUGUAUGUGUGUGUGUGUGUGUGUGUGUGUAUAAGCAUACAUGGGAAUUUUUCUGAAUGUAAGCAGUUUUGAUGUGUCUGUAUAUCAAUCUGU: 4.11
UUUUCUUCAGGUGUCAAUGGCGUUAGACUCCCAGGAAGACUAGCCCUGCCCACAGGGCCACCUGUUGGUUUGAGAGCGUGUUCGUGUUCUCUUGCCCUCCCUGCCUAAGA: 0.272
ACUCUGUCUCAAAAAAAAAACAAAACAAAAAAAACCUCUUUGCUGGUAUAUUUGAAGAGCUUGGGAUGGAUUUGACUAAAUCUGCCCCGAGGAGGGUGAACAAGGUGAUC: 0.334

Study 4
Target: Interferon regulatory factor 5, full length, phosphomimetic (IRF5, Homo sapiens, UniProt Q13568-2, residues 1-514, K96S/S451D/S453D/S456D/S462D)
Method: protein-binding microarray
Form: double-stranded DNA, one strand shown
Sample: in vitro
Tested at: 250 nM
Setting: 60-bp whole probe
With: salmon DNA 0.4 mg/ml
Relative to: random background probes
Direction: higher = stronger binding
Quantity: log fluorescence
Shared flanks, not repeated: GCCTAGCAC … GTCTTGATTCGCTTGACGCTGCTG
TTAGAATCCAGTTTCGATTAGTGCTAG: 9.87 z-score
CCTCTTCTGGATCTCAGACTGTGCTAG: -0.0534 z-score
TTAGGACTGGGGCTGGGTTAGTGCTAG: -0.311 z-score
GACGAACTGAATTTCGAGACGTGCTAG: 1.44 z-score
TTAGGTTTCCTTTTCCTATAGTGCTAG: 1.78 z-score
TGAGGTCTCGGTTTCGGTTAGTGCTAG: 8.63 z-score
TTAGGTATCGACGATCGGTTAGTGCTA: 2.57 z-score
GACGGACGGGGGACTGGGGACGTGCTA: 0.405 z-score
ATAGATTTCAGTCTCGATTAGTGCTAG: 2.75 z-score
TTAGGTCTCGGATTGGGTTAGTGCTAG: 0.22 z-score
TTAGGTATCGGGGATCGGTTAGTGCTA: 1.7 z-score
GACTAACTGAGTTTCGAGACGTGCTAG: 4.58 z-score
TAAGGTATCGGTCTCGGTTAGTGCTAG: 5.1 z-score
GACGGACTGCTAGTGCTGACGTGCTAG: -0.725 z-score
TTAGGTTTCGGTCTCGCTTAGTGCTAG: 10.3 z-score
TCAAACTTCCCAATGGTACTGTGCTAG: -0.0123 z-score
TTAGATTTCAGTCTCGGTTAGTGCTAG: 3.22 z-score
CATTTTCTGAATGTCCTCCTGTGCTAG: 1.46 z-score
GACGGTTTCGGTCTCGCGACGTGCTAG: 9.73 z-score
TTAGAACCGAGACTGGATTAGTGCTAG: 0.241 z-score
TCACATTGCTTTCTCTTACTGTGCTAG: 2.58 z-score
TTAGGTCTCGGTCTCGGTTTGTGCTAG: 0.931 z-score
TTAGGTATCTACTTTCGGTTAGTGCTA: 10.5 z-score
GACGGTATCGGACTGGTGACGTGCTAG: 0.728 z-score
GTAGATTTCAGTTCCGATTAGTGCTAG: 2.89 z-score

Repeated from above (study 3):
UAAAUGCUCCCUGCCUGGUGUGGGGAUGGGGUCCCCCUCUUUGUGAGGGCUGGAGCAUGGCACGGCAUGGAUUAACACGGCAGAGGAACAAAGGUGUGCUCUGAGCUUCU: 2.66
ACUUUGCACUUUGAAUCCAGAGGAAGAUGAAUUUUUAAAAUCUCCAUCAAACGUGCCUUAAAGCUAAAGCAUUUUGACAGGAGUAUUUAAACUUAGUCCAGGAUAUUUUC: 0.383
CUGGAACAGUACAUGGAGGCCUGACCUUGUGGGGGCACAGGGUGGAACCUUAGCUGAAUAUAGUGUGUGUCUCAAGAGGAAGUCAGGGUACUAGCUCAGUGCUCAAUCUC: 0.56
GGUUUUCUAUUAAGGUCUCUGCCCCAGGCAUGGUGCUCUAUAUCUUGGCCAAAUAAAUUACUUUCCUUGAAUAUCCAGGAAUCUUUUAGUCUAAAGCAAUGAGGAGUUAU: 0.394
CUGUAAAAAGGGAGGUGAGAAUACCUACCUCACGGAACUGUUGGGAGGCUCAGAUGAGAUGCUAUAUGUGAAAACAUUCUGUAAGCUUCGUACAAAUGUGAAGUAUUAAU: 0.547
AUAUAUUAUUUUGUAGUAUCUCAGACUUUGCAUAAAUACUAUUAUUUUUGUAUGGAAUUUUUUACAGAAGAGCUAUUUCUGUAUAUGUAAUUAUUUGUGUUUUUUGAAAU: 1.37
GCGCUACGCCCAGAUCCAGCUGGACAAGCUCAAGAAAACCAAUGUCUUCAAUGCCACCUUCCACAUCUGGCACAGCGGACAGUUUGGCACAAUCAAUAAUUUCAGACUGG: 0.354
UGAGAAAACAGGGGCGUUUCCUAAUUUGGUCUUUAUCCUGCGACAACACUUUCAGCAGACUAGCCUCUCCUUAUCUCACAGAUCACAAGCACCCCUAGAUAGUGUGAUUC: 0.326
UCAUUACUGUUUGAUUGAAAAUAAUUUCAAGAUUCAAAAUCUCAUUGACUUCCCAAAUUUGUGUUUUUAAGAAGGCUUUGCUGCAAGCUACCAUUCCCAAUGGGGCAGUC: 0.752
